# Experimental data gathered from unrelated publications.
# Every numbered part comes from another study and shows a few of its results, in no order. Substitutions count along the parent as printed.

# Sample 1 — technique: RNA Bind-n-Seq; form: RNA; medium: in vitro; concentration: 365 nM; relative to: no-protein control; direction: higher = stronger binding
# Target: RNA binding protein fox-1 homolog 2, RRM domain, GST-SBP tag (RBFOX2, Homo sapiens, UniProt O43251-10, residues 100-194)
# Notes: natural RNA segment, single round, ends assumed
# Target sequence (chain): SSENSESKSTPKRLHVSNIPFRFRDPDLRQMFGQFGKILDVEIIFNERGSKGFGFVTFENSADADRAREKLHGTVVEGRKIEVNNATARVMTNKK
Oligonucleotide,RBNS enrichment (R)
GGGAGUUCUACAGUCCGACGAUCCCAGCUUGCUGGUCGGCUUUCCUCUAGAGAGAGCCGGUUUUGGGGCCAUUUCCCUUUGAUGCUUUGGUGGCCUUGCCCCGCUCUGCAGCACAGACAGGCCAGAUGCAUUUUGGAAUUCUCGGGUGCCAA,0.672
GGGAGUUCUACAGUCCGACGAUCUUUGGGGCAUUUUUCUACAAACACAGCCUCCUCUCCCCCUGUAUGGACUGGCUAUAACCAUAAGCCAGGCGCUUUCACCAAGAUGGCUGGUGGCCAAGGUGGGCAGUAGGUGGAAUUCUCGGGUGCCAA,0.485
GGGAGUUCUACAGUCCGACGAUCUAAACAUUGGAUUAGGCAGUCAAAAAAACCAAGCAAGCAUAAAAGGUCAAUAAGUUGUAAUCUUGAUAGUAAAGGUGGAAAACUUAUUAUAAAUGGAAAGAAAGUUUUAUUGGAAUUCUCGGGUGCCAA,0.971
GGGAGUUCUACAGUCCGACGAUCUCAGCUAGAUAUGAGCUAUGCAAGGAGCCAUAGGAAUAGCUAUAUGUUGGAAUGGCUUUAAUGUUGUUACAUUUGAGGGGGGAUGGAAAAUAAAGUGAUUAUAUAACUCUUGGAAUUCUCGGGUGCCAA,7.01
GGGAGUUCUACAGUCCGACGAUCCAGUAUUUAUUUUUACUGGGUGAGGAUUUUUCAACUUAACGUUUUAGGACUUAACCAAAUAACCAGUCCAUGAAUAAGCAACCCCAUUACCACAGACAGUACCCACGCUAUGGAAUUCUCGGGUGCCAA,0.529
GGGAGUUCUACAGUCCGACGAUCCGAGCCAUUCCCUGGAGACCCUGGGUCUACCCCAGGUGGUCGUCAUCUGGGCCAUUUGCCUUACUUCUCUGGAGCAUACCCACCCUCAGUUACGUGCCAGACCUGGACCGUGGAAUUCUCGGGUGCCAA,0.324
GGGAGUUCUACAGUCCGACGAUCUGGACACCAUGCUGGGCCUGCUGCAGUCUGACCUCAGCCGUCGUGGUGUCCCCACACAGGCCAAAGGCCUCUGUGGCUCCUGCAAUAAACCUAUAGCUGGGCAAGUGGUUUGGAAUUCUCGGGUGCCAA,0.386
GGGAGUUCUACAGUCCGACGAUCAAGAGAGCUUCCCAUUGCUUCUGCUCUCCUCAGAGGUCCCGGGCUGGAUGGAGGCUGGUACUUACCCACCCCUUUUAGCUUUUAGGGAUUAAGGAAGGGUCAAGCCAGCCUGGAAUUCUCGGGUGCCAA,0.338

# Sample 2 — technique: protein binding microarray; form: double-stranded DNA, one strand shown; medium: in vitro; concentration: not given; relative to: not given; direction: higher = stronger binding
# Target: Histone acetyltransferase KAT6A, winged helix 1, GST fusion (KAT6A, Homo sapiens, UniProt Q92794, residues 1-85)
# Notes: 8-mer, flanks averaged, mean of 2 arrays, mostly near background
# Target sequence (chain): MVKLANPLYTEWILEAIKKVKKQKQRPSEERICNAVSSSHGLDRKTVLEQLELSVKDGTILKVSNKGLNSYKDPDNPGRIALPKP
Oligonucleotide,E-score
TAACTGTA,-0.143
CGGTCTAC,0.267
ACAACGGT,0.0244
ATTTACGA,-0.122
GGGCTCCA,-0.00534
CGGAAGCC,0.294
GAGCACCA,-0.149
CAATACTA,-0.123
GTCCTCCA,0.0451
CACGCTGC,0.156
ATTCTACA,-0.15
AATTGATA,-0.0733
CCGCATGA,0.113
ATAAAGAC,-0.175
AGGGATCC,0.0585
AATCAACA,-0.174
ATATTGTC,0.0617
ATTTTTGG,-0.155
AACAATGC,-0.0257
ATGATCCC,0.0912
CGACATAA,0.0496
GGAATGAC,-0.0302
TAATCCTA,0.0234

# Sample 3 — technique: RNA Bind-n-Seq; form: RNA; medium: in vitro; concentration: not given; relative to: input RNA pool; direction: higher = stronger binding
# Target: RING finger protein unkempt homolog, zinc fingers 1-6, GST-SBP tag (UNK, Homo sapiens, UniProt Q9C0B0, residues 30-357)
# UniProt Q9C0B0, sequence (30-357, looked up): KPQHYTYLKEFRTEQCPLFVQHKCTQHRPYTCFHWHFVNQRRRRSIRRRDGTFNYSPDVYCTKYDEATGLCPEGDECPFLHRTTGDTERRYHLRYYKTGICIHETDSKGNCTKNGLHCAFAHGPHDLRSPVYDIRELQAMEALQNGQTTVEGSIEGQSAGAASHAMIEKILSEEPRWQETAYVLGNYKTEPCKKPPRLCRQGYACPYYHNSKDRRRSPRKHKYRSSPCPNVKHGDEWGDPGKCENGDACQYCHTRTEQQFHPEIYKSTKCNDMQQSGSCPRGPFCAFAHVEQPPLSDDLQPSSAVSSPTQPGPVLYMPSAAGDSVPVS
# Notes: RNA with constant flanks, human-mouse chimeric sites, ends assumed
Oligonucleotide,bound/input enrichment [ratio]
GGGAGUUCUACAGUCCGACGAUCAAAGAGAAACUAAAGCAAACUGAUUGAAAGAGGAUUGGCAAAGAGAAUUUCAUAGAGAAACUAGGAUUUAUUAGCAAACAUGAGUUAGUAUUCCAGACGUCUCAGAAACCCCAGCCAAACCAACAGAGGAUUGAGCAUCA,1.7
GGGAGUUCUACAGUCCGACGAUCAACAGAUUGUCUUUAAGCAUUCCAAGCGAGAAUGCUGAAAUAGUCAUUGUUGCCCAUGUGCCUUCUGACUGAGCUUUAAUGCUGUUCCAUGUUACAUUGAUGUUCUUCUCCAGAAUUGUUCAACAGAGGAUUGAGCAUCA,0.213
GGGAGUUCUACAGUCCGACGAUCGUACUGCAGCAGCAGGGAAAACUGCAGGAAGCACUGAUGCAUUAUAAAGAAGCCAUACGAAUCAGUCCUACCUUUGCUGAUGCCUACUCUAAUAUGGGAAACACUCUAAAGGAGAUGCAGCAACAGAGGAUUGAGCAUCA,0.334
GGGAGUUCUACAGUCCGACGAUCAAAGAACUACUGAGGCAAGGCAGCAAAUUUAGGAGAGACAUUUCAACACUAUUAAUAGAGUUAGGAUUCCAAAUUAAAAAGAAAACUAAGACAUUAUACAUCAACAAAGCCAAUAUCUGGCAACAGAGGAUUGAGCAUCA,10
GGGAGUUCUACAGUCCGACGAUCGCUCCUCUUCCGCACUCCCCUGCCUGCCACUGGGCUGGGACCAGAAUCCAGCUUUCUUUUAAAACUCUCAGUGUAACUGUAUCCCGUGACAUUUCAUUUUUUUUAAAUAGUGUAUUUUUUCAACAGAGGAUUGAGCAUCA,3.81
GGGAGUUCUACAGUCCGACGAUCGCUCUUGGGAAUGUAAUAAGUGCCUUGGGGGACAAGAGCAAGAGAGCCACCCAUGUCCCUUACAGAGACUCUAAGCUGACAAGACUCCUACAGGAUUCCCUUGGGGGUAACAGCCAAACCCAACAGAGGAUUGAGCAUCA,0.129
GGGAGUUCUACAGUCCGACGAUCAGUUCCAAACCACCAUCAGAAAUGAAGGAUGAGACUACCAGACGAGCCAAAACAGCUGCGCUACAGAAAAGUAAACUUAACCUUGCAGAGUUCCUUAAUGAAGAUACAAGUUAAGAGAGCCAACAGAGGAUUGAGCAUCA,0.138
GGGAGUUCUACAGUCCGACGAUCUUUCUACUGCAGCAAACGAUGCUAAGAGUGAAGGAUCCUAAGAAGUCCCUGGAUUUUUAUACUAGAGUUCUUGGACUGACCCUCCUGCAGAAGCUUGACUUCCCUGCUAUGAAGUUCUCGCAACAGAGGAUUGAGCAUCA,0.163

# Sample 4 — technique: universal PBM; form: double-stranded DNA, one strand shown; medium: in vitro; concentration: not given; direction: higher = stronger binding
# Target: Sal-like protein 4, full length isoform B (SALL4, Homo sapiens, UniProt Q9UJQ4-2, residues 1-616)
# Notes: 8-mer, flanks averaged, mean of replicates
# Residues (chain): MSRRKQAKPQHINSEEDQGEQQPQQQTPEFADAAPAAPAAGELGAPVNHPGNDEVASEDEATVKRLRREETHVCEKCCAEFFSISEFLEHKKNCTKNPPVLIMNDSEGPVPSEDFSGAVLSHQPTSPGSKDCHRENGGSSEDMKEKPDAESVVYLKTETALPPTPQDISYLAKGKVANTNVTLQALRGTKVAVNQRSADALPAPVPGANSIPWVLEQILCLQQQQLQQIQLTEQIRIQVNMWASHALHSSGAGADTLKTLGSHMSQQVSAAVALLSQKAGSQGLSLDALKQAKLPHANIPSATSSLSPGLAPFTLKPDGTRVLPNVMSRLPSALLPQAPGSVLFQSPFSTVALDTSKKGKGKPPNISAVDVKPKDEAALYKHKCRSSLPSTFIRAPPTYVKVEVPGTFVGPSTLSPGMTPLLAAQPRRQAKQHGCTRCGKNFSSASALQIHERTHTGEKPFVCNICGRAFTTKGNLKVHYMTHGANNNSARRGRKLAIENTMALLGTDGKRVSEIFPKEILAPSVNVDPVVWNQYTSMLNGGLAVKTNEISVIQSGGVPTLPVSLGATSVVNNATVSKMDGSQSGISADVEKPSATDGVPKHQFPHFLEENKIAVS
Oligonucleotide,E-score
ATGGTTAC,0.159
ACCATGCT,0.0288
CATCCATA,0.187
CGTGCATC,-0.312
AACGGCAA,0.0653
GGCATCAA,-0.0657
ACTGAGGA,-0.169
GAAGAAAC,-0.0851
GTAACAAA,0.215
CCAACAAA,0.136
CGCTTTTC,-0.0714
GCTACCTA,0.0408
ATGAAGAG,0.174
CACTTCAA,0.138
AGGGTATC,-0.0853
AACTAGTC,0.146
CCCGGATC,-0.347
ACAGTTCG,-0.0164
ATAGAATA,0.323

# Sample 5 — target: CCNE2, cyclin fold, Cln2 fusion (human); technique: yeast growth competition, sequencing; medium: yeast; notes: weak parent motif; relative to: not given; direction: higher = stronger binding
# Parent: CDC6 docking peptide (human); TLKGRRLVFDNQL
Variant,normalised enrichment score
TLKGRRLPFDNQL [V8P],0.496
TRKGRRLVFDNQL [L2R],1.27
TLKGRRLVTDNQL [F9T],0.126
TLKGRRLVFDNQH [L13H],0.119
TFKGRRLVFDNQL [L2F],-0.105
TLKGRRLVFDNQY [L13Y],1.65
CLKGRRLVFDNQL [T1C],0.883
TLKGLRLVFDNQL [R5L],-0.0883
TLKGRRLVFKNQL [D10K],0.24
TLKGRALVFDNQL [R6A],-0.0177
TLKWRRLVFDNQL [G4W],0.477
TLKGRRLVFDNCL [Q12C],0.548
TLKGHRLVFDNQL [R5H],-0.349
ALKGRRLVFDNQL [T1A],1.2
TLKGRRLVFDNQV [L13V],-0.204
TLKGRRLVFDNQC [L13C],0.863
TLKGRPLVFDNQL [R6P],-0.28
TLKGRHLVFDNQL [R6H],-0.758
TLKGRRLFFDNQL [V8F],0.0856
TLKGRRLQFDNQL [V8Q],-0.244
TLKGRRLVFHNQL [D10H],0.672

# A few entries again (sample 5):
Variant,normalised enrichment score
TLKGLRLVFDNQL [R5L],-0.0883
TLKGRRLVFKNQL [D10K],0.24
TLKGRALVFDNQL [R6A],-0.0177
TLKWRRLVFDNQL [G4W],0.477
TLKGRRLVFDNCL [Q12C],0.548
TLKGHRLVFDNQL [R5H],-0.349
ALKGRRLVFDNQL [T1A],1.2
TLKGRRLVFDNQV [L13V],-0.204
TLKGRRLVFDNQC [L13C],0.863
TLKGRPLVFDNQL [R6P],-0.28
TLKGRHLVFDNQL [R6H],-0.758
TLKGRRLFFDNQL [V8F],0.0856
